{"data": "Measurements of several laboratories", "target": "Cytochrome P450 3A4 (CYP3A4, Homo sapiens, UniProt P08684)", "note": "Compare with care: the assays were run in different laboratories. ± gives the spread as reported.", "UniProt P08684, sequence (whole entry, looked up)": "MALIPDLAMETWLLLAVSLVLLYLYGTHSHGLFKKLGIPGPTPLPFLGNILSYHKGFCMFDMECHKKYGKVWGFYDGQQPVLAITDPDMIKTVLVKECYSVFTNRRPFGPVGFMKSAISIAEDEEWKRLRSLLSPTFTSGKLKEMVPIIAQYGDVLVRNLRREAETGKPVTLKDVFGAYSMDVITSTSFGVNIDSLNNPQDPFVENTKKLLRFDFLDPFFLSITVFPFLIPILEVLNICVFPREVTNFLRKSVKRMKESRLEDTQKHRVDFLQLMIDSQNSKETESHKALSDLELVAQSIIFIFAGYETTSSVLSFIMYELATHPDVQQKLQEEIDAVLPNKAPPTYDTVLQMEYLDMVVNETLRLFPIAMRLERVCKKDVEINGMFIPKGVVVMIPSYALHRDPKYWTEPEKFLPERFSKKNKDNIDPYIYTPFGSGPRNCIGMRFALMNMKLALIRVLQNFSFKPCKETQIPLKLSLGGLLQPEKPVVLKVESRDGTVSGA"}
{"Structure (SMILES)": "C=C(F)C(=O)N1CCN(c2nc(OC[C@@H]3CCCN3C)nc3c2CCN(c2cccc4cccc(Cl)c24)C3)C[C@@H]1CC#N", "system": "healthy volunteers, plasma", "setting": "200 mg, alone, geometric mean", "quantity": "Cmax", "result": "85.6 ng/mL"}
{"Structure (SMILES)": "Cc1cc(Nc2ncnc3ccc(NC4=NC(C)(CO)CO4)cc23)ccc1Oc1ccn2ncnc2c1 (stereo not drawn)", "system": "human, plasma", "setting": "tucatinib, day 6, together with: itraconazole", "quantity": "half-life (arithmetic mean)", "result": "858 min"}
{"Structure (SMILES)": "O=c1[nH]ncn1-c1ccc(N2CCN(c3ccc(OCC4COC(Cn5cncn5)(c5ccc(Cl)cc5Cl)O4)cc3)CC2)cc1 (stereo not drawn)", "assay": "inhibitor", "system": "human liver microsomes", "setting": "together with: testosterone", "quantity": "IC50", "result": "0.0168 µM"}
{"Structure (SMILES)": "Nc1ncnc2c1c(-c1ccc(Oc3ccccc3)cc1)nn2[C@@H]1CCCN(C(=O)C(O)CO)C1 (stereo partly drawn)", "system": "human patients", "setting": "dose not given, CYP3A4 *1/*22 carriers", "scale": "baseline: other genotypes", "quantity": "AUC", "result": "increased"}
{"Structure (SMILES)": "Cc1cc(Nc2ncnc3ccc(NC4=NC(C)(C)CO4)cc23)ccc1Oc1ccn2ncnc2c1", "system": "human, plasma", "setting": "oral, 300 mg, day 1, single dose alone", "quantity": "AUC(0-last), geometric mean", "result": "3320 ng·h/mL"}
{"Structure (SMILES)": "CO[C@]1(C(=O)N[C@@H](C)c2ccc(-n3cc(F)cn3)nc2)CC[C@H](c2nc(C)cc(Nc3cc(C)[nH]n3)n2)CC1", "assay": "time-dependent inactivation, inactivator", "system": "human liver microsomes", "quantity": "kinact", "result": "0.002 s⁻¹"}
{"Structure (SMILES)": "NC(=O)NC1CCC(CCN2CCN(c3cccc(Cl)c3Cl)CC2)CC1 (stereo not drawn)", "system": "human", "setting": "oral, dose not given, outlier subject excluded, together with: erythromycin", "scale": "baseline: compound alone", "quantity": "Cmax increase", "result": "55%"}
{"Structure (SMILES)": "CSc1ccccc1C(=O)NCCn1cc(C(=O)NCc2cccc(C)n2)c(=O)c2cc3c(cc21)OCO3", "assay": "enzyme activity, inhibitor", "system": "human liver microsomes", "setting": "20 min, no NADPH preincubation, together with: testosterone 50 µM", "quantity": "IC50", "result": "43.1 µM"}
{"Structure (SMILES)": "C[C@H]1CN(C2COC2)CCN1c1ccc(Nc2cc(-c3ccnc(N4CCn5c(cc6c5CC(C)(C)C6)C4=O)c3CO)cn(C)c2=O)nc1", "assay": "substrate", "system": "recombinant enzyme", "setting": "1 µM, 60 min", "quantity": "remaining compound", "result": "29.3 ± 1.7%"}
{"Structure (SMILES)": "Cc1cc(C)c(CNC(=O)c2cc(Cl)c3c(c2C)O[C@@](C)([C@H]2CC[C@H](N(C)C)CC2)O3)c(=O)[nH]1", "system": "recombinant human CYP3A4", "setting": "0 and 30 min", "quantity": "CLint", "result": "0.342 µL/min/pmol"}
{"Structure (SMILES)": "Nc1ccc(S(=O)(=O)Nc2ccnn2-c2ccccc2)cc1", "assay": "enzyme activity, inhibitor", "setting": "10 µM", "quantity": "inhibition", "result": "-20%"}
{"Structure (SMILES)": "Cn1cncc1[C@@](N)(c1ccc(Cl)cc1)c1ccc2c(c1)c(-c1cccc(Cl)c1)cc(=O)n2C", "system": "human liver microsomes", "quantity": "share of metabolism by CYPs", "result": "39.4%"}
{"Structure (SMILES)": "N#C[C@H](C[C@@H]1CCCNC1=O)NC(=O)[C@H](CC1CC1)NC(=O)c1cc2cccc(Cl)c2[nH]1", "assay": "NADPH metabolic stability", "setting": "2 µM, pH 7.4", "quantity": "half-life", "result": "0.89 min"}
{"Structure (SMILES)": "CSc1ccccc1C(=O)NCCn1cc(C(=O)NCc2cccc(C)n2)c(=O)c2cc3c(cc21)OC(F)(F)O3", "assay": "enzyme activity, inhibitor", "system": "human liver microsomes", "setting": "20 min, 30 min NADPH preincubation, together with: testosterone 50 µM", "quantity": "IC50", "result": "4.87 µM"}
{"Structure (SMILES)": "O=C(CCCCCCC(=O)Nc1ccccc1)NO", "assay": "inhibitor, Vivid fluorescent", "system": "recombinant enzyme", "setting": "tested 0.47 to 60 µM", "quantity": "IC50", "result": "no inhibition"}
{"Structure (SMILES)": "CNC(=O)NC1CCC(CCN2CCN(c3cccc(Cl)c3Cl)CC2)CC1 (stereo not drawn)", "system": "human", "setting": "oral, dose not given, outlier subject excluded, together with: erythromycin", "scale": "baseline: compound alone", "quantity": "Cmax increase", "result": "13%"}
{"Structure (SMILES)": "CN(C(=O)n1cnc(-c2ccc[n+]([O-])c2)c1)C1CCCCC1", "assay": "inhibitor", "system": "pooled human liver microsomes", "setting": "concentration not given, 30 min pre-incubation, without cofactor", "quantity": "time-dependent inhibition", "result": "no effect"}
{"Structure (SMILES)": "C=CC(=O)Nc1cc(Nc2nccc(-c3cn(C)c4ccccc34)n2)c(OCC(F)(F)F)nc1N(C)CCNC", "assay": "substrate, recombinant enzyme", "quantity": "formation clearance", "result": "4.73 µL/min/pmol"}
{"Structure (SMILES)": "CCCCCCCC/C=C1\\C=C(C(F)(F)F)c2cc(O)c(O)cc21", "assay": "enzyme activity, inhibitor", "system": "pooled human liver microsomes", "setting": "concentration not given, 30 min, 37 °C, together with: midazolam", "quantity": "inhibition", "result": "no inhibition"}
{"Structure (SMILES)": "CCC(C)n1ncn(-c2ccc(N3CCN(c4ccc(OCC5COC(Cn6cncn6)(c6ccc(Cl)cc6Cl)O5)cc4)CC3)cc2)c1=O (stereo not drawn)", "system": "human, both sexes, plasma", "setting": "oral, 200 mg, multiple doses, together with: pirtobrutinib", "quantity": "AUC", "result": "6320 ng·h/mL"}
{"Structure (SMILES)": "O=C(O)c1cc(-c2ccc(-c3cc[nH]n3)cc2)c2ccc(-c3ccc(C(F)(F)F)cc3)cc2c1", "setting": "10 µM", "quantity": "inhibition", "result": "no inhibition"}
{"Structure (SMILES)": "C=CC(=O)Nc1cc(Nc2nccc(-c3cn(C)c4ccccc34)n2)c(OCC(F)(F)F)nc1N(C)CCN(C)C", "assay": "substrate, recombinant enzyme, substrate depletion", "quantity": "fraction metabolised", "result": "80.2%"}
{"Structure (SMILES)": "CCCCC1=NC2(CCCC2)C(=O)N1Cc1ccc(-c2ccccc2S(=O)(=O)Nc2noc(C)c2C)c(COCC)c1", "assay": "substrate", "system": "human male, plasma", "setting": "oral, dose not given, together with: itraconazole", "scale": "baseline: with over without itraconazole", "quantity": "AUC ratio", "result": 2.74}
{"Structure (SMILES)": "COc1ccc(F)cc1C(=O)NCc1ccc(-c2nn([C@@H](C)C(F)(F)F)c(N)c2C(N)=O)cc1", "assay": "time-dependent inhibitor", "system": "human liver microsomes", "quantity": "kinact", "result": "0.000678 s⁻¹"}
{"Structure (SMILES)": "CC[C@H]1[C@@H](O)[C@@H]2[C@H](CC[C@]3(C)[C@@H]([C@H](C)CCNC(=O)NS(=O)(=O)c4ccc(C(C)(C)C)cc4)CC[C@@H]23)[C@@]2(C)CC[C@@H](O)C[C@@H]12", "system": "human, plasma", "setting": "dose not given, geometric mean, together with: fluconazole", "quantity": "AUC(0-t)", "result": "1490 ng·h/mL"}
{"Structure (SMILES)": "OCc1ccc(-c2nn(Cc3ccccc3)c3ccccc23)o1", "assay": "substrate", "system": "recombinant human enzyme", "quantity": "half-life", "result": "2.9 min"}
{"Structure (SMILES)": "C=CC(=O)N(C)CCOc1c(N)ncnc1-c1cc(F)cc(NC(=O)c2ccc(C3CC3)cc2F)c1C", "quantity": "fraction metabolised by CYP3A4", "result": "97.8%"}
